{"data": "Results from different studies", "note": "Numbered parts are unrelated; each lists some results of a single study. Substitutions count along the parent as printed."}
{"data": "Sample 1", "target": "Ras GTPase-activating protein-binding protein 1, full length (G3BP1, Homo sapiens, UniProt Q13283)", "method": "RNA Bind-n-Seq", "molecule type": "RNA", "matrix": "in vitro", "concentration": "200 nM", "setting": "whole 134-nt RNA, ends assumed", "added": "150 mM KCl", "relative to": "input library", "reading": "higher = stronger binding", "UniProt Q13283, sequence (whole entry, looked up)": "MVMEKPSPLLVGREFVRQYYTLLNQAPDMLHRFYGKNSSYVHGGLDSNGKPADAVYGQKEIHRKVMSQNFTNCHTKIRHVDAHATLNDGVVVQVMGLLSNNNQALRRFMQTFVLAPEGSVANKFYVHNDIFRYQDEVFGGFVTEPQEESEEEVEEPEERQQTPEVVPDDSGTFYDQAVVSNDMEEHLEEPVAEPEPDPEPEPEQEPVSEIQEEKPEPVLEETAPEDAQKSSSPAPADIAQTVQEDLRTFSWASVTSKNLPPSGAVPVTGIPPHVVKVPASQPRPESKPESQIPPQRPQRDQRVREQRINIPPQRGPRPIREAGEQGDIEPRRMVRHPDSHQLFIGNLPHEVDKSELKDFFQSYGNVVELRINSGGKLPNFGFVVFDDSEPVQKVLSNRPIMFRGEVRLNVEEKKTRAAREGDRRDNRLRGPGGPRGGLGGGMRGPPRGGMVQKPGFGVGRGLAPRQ"}
{"Oligonucleotide": "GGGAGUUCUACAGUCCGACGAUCUCCAGCCACUCACCGGCGAUCCAGGUCCAGAACCCCCCUGAUAAGCCGACGUAGGUCCAGAUCUCGAACUUCACCAGUCAGCCGGAGACGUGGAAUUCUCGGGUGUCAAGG", "log2 enrichment": 0.897}
{"Oligonucleotide": "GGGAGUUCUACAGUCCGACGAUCCACAGACAACACGCACCCACACAGACACAGAGGGAAGGGGUUGGGAUGGGGACAGGGUGGACAGCAGGGCGGGGUAGGACCCCAGCCCCUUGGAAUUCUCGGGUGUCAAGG", "log2 enrichment": 1.78}
{"Oligonucleotide": "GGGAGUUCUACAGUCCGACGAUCUCCUCAAGUCCUGUGCUACACAUCGUAUGUACCGAAUCGGUGGGUGGGGUGGAAAGUAUUAUGUUACGCCGUUCGGAUCUGCACUUCCAGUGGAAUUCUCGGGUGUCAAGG", "log2 enrichment": 0.439}
{"Oligonucleotide": "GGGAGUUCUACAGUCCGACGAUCCUCAAGUCCUGUGCUACACAUCGUAUGUACCGAAUCGGUGGAGGUUUUUUUGGAAAGUAUUAUGUUACGCCGUUCGGAUCUGCACUUCCAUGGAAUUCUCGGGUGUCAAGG", "log2 enrichment": -0.476}
{"Oligonucleotide": "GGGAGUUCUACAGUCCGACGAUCUAACUUUAUAGGAGGAUCUGAUGGAUAUGGCAGUGGACGUGGAUUUGGGGAUGGCUAUAAUGGGUAUGGAGGAGGACCUGGAGGUGGCAAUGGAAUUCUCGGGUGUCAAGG", "log2 enrichment": 0.294}
{"Oligonucleotide": "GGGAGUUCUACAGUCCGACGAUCAGUCCUGUGCUACACAUCGUAUGUACCGAAUCGGGAAAAAGGGUUUGGGUUUUUGGGAAAGUAUUAUGUUACGCCGUUCGGAUCUGCACUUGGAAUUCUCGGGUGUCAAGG", "log2 enrichment": -0.385}
{"Oligonucleotide": "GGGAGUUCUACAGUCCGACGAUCCCUGUGCUACACAUCGUAUGUACCGAAUCGGGGUGGGGAAAAAAAGGGGUUUUUUUGGGGAAAGUAUUAUGUUACGCCGUUCGGAUCUGCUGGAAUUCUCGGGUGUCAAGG", "log2 enrichment": 0.108}
{"Oligonucleotide": "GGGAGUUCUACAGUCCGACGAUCUCCUGUGCUACACAUCGUAUGUACCGAAUCGGGCCCCCCCGGCCCCCCCGGCCCCCCCGGAAAGUAUUAUGUUACGCCGUUCGGAUCUGCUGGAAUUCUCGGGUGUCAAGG", "log2 enrichment": 0.438}
{"Oligonucleotide": "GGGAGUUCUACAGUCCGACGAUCCUCAAGUCCUGUGCUACACAUCGUAUGUACCGAAUCGGGGUGGGGUGGGUGGGGAAAGUAUUAUGUUACGCCGUUCGGAUCUGCACUUCCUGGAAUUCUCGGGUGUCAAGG", "log2 enrichment": 0.902}
{"data": "Sample 2", "target": "ABI1, truncated, D143A, DHFR fusion (Arabidopsis thaliana)", "method": "DHFR PCA, deep sequencing", "matrix": "yeast", "setting": "methotrexate growth selection, single substitutions", "added": "(+)-ABA 0.11 µM", "relative to": "wild-type fitted maximum", "reading": "higher = stronger binding", "starting sequence": "PYL1, truncated, DHFR fusion (Arabidopsis thaliana); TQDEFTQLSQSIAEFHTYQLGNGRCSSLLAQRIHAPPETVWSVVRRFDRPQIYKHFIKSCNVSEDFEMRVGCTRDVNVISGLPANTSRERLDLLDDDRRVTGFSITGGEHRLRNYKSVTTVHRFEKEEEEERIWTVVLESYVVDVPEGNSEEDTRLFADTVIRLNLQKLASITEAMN; partner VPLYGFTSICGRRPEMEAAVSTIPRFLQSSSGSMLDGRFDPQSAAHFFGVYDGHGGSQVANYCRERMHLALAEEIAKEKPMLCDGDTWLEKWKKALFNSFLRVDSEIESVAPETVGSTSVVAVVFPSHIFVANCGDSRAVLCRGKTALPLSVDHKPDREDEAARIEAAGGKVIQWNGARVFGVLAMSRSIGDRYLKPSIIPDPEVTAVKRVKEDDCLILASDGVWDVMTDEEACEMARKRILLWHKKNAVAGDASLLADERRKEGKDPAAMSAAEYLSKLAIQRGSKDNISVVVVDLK"}
{"Change": "T106L", "relative binding score [%]": 58}
{"Change": "E139G", "relative binding score [%]": -6.7}
{"Change": "E128K", "relative binding score [%]": 25.2}
{"Change": "A158R", "relative binding score [%]": -1.28}
{"Change": "P50G", "relative binding score [%]": -6.82}
{"Change": "A30D", "relative binding score [%]": 7.83}
{"Change": "E125G", "relative binding score [%]": 38.6}
{"Change": "V76R", "relative binding score [%]": -2.03}
{"Change": "E14P", "relative binding score [%]": -20.6}
{"Change": "S171Q", "relative binding score [%]": 54.5}
{"Change": "T73N", "relative binding score [%]": 16}
{"Change": "K58R", "relative binding score [%]": 26.5}
{"Change": "T1G", "relative binding score [%]": 28.8}
{"Change": "A35T", "relative binding score [%]": 7.54}
{"Change": "I105K", "relative binding score [%]": 10.3}
{"data": "Sample 3", "target": "CCNB1, cyclin fold, Cln2 fusion (human)", "method": "yeast growth competition, sequencing", "matrix": "yeast", "setting": "strong parent motif", "relative to": "not given", "reading": "higher = stronger binding", "starting sequence": "BRCA2 docking peptide (human); PSIKRNLLNEFDR; partner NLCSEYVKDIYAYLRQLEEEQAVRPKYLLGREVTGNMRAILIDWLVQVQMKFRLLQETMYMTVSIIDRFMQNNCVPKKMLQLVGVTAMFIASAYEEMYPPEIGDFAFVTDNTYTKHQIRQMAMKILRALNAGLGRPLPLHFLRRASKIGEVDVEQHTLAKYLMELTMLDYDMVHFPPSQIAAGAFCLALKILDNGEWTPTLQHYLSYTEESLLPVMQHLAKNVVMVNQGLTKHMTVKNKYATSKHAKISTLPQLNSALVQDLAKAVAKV"}
{"Change": "N9K", "normalised enrichment score": 2.87}
{"Change": "R5W", "normalised enrichment score": 0.451}
{"Change": "E10T", "normalised enrichment score": -1.2}
{"Change": "D12T", "normalised enrichment score": 0.783}
{"Change": "L7Q", "normalised enrichment score": 1.3}
{"Change": "R5K F11L", "normalised enrichment score": 0.627}
{"Change": "R13W", "normalised enrichment score": 2.62}
{"Change": "L7S", "normalised enrichment score": -0.126}
{"Change": "S2R", "normalised enrichment score": 0.978}
{"Change": "N9W", "normalised enrichment score": 2.6}
{"Change": "N9A", "normalised enrichment score": 3.45}
{"Change": "E10R", "normalised enrichment score": -0.135}
{"Change": "N6H", "normalised enrichment score": 0.527}
{"Change": "R13V", "normalised enrichment score": 2.82}
{"Change": "N9D", "normalised enrichment score": 3.08}
{"Change": "L8T", "normalised enrichment score": 0.885}
{"Change": "L7Y", "normalised enrichment score": -0.144}
{"data": "Sample 4", "target": "Centromere-binding protein 1, full length, His-tagged (CBF1, Saccharomyces cerevisiae, UniProt P17106, residues 1-351)", "method": "competition protein-binding microarray", "molecule type": "double-stranded DNA, one strand shown", "matrix": "in vitro", "concentration": "2 µM", "setting": "whole 60-bp probe, lowest competitor level", "added": "Pho4 competitor, 0.05 µM", "reading": "higher = stronger binding", "UniProt P17106, sequence (whole entry, looked up)": "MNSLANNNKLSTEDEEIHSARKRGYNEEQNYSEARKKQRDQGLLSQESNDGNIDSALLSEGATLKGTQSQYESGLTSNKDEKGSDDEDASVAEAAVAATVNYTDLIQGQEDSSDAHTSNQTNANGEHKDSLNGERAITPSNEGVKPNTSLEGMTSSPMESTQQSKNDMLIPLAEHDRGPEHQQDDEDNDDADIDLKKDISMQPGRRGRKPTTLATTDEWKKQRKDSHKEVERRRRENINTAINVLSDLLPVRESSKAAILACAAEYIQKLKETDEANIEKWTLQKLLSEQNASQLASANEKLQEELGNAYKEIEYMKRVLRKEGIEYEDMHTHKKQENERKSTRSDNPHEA"}
{"Oligonucleotide": "AAATTACTAAGTTGCGCGGTGGGTGACGCCGTATGAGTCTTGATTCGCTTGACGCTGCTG", "fluorescence intensity": "61.2 a.u."}
{"Oligonucleotide": "AGGAGTTTCTCCGGCCATGTGCGGCTGGTTCTACTTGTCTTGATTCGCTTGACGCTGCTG", "fluorescence intensity": "61.7 a.u."}
{"Oligonucleotide": "CGTCCTAGTGATTGTCACGGCACTTCCATGAGGAAGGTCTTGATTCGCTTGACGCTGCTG", "fluorescence intensity": "101 a.u."}
{"Oligonucleotide": "CTTTCCCGATCTTTTCACGTGGACTTAGCACATTTGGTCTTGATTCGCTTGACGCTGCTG", "fluorescence intensity": "653 a.u."}
{"Oligonucleotide": "AAAGCGGTAATTTTTCACGTGACTTCACATATCTATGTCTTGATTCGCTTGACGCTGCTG", "fluorescence intensity": "9500 a.u."}
{"Oligonucleotide": "AAAAGACCATCCCATCACGTGACTCGTTTTTCCTGCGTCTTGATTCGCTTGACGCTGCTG", "fluorescence intensity": "22600 a.u."}
{"Oligonucleotide": "CTTTCCCGATCTTCACACGTGTTTTTAGCACATTTGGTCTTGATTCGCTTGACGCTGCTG", "fluorescence intensity": "1050 a.u."}
{"Oligonucleotide": "CGTCCTAGTGATTGTCACTATACTTCCATGAGGAAGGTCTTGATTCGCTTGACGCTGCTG", "fluorescence intensity": "80.7 a.u."}
{"Oligonucleotide": "CTAACGAAGGTTTGTCACGTCACTTACAAGCCAAGTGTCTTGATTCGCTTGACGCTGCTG", "fluorescence intensity": "106 a.u."}
{"Oligonucleotide": "ATTTGAAAAATTGGCAATGTGATATTCGGTTAAGGAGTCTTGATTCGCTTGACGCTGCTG", "fluorescence intensity": "99.1 a.u."}
{"Oligonucleotide": "TCGCAGATGCCATATCCCGTGCCGAATATACTATAAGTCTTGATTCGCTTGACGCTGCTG", "fluorescence intensity": "276 a.u."}
{"Oligonucleotide": "TGGAAGGAAAAAACCTTCGTGGGTAGAGGGCTCATAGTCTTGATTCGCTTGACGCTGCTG", "fluorescence intensity": "58 a.u."}
{"Oligonucleotide": "GCACAAGGAATTGCTGGCGTGCTAATTCTCGACCTTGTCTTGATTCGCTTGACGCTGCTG", "fluorescence intensity": "69.6 a.u."}
{"Oligonucleotide": "TGCGCAACAACTTTTCACGTGGCGTTATGTCTAGAAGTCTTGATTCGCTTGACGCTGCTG", "fluorescence intensity": "801 a.u."}
{"Oligonucleotide": "GAAGATAGCCACCATCACGTGAAGGCCATCCCAAGAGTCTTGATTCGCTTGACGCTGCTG", "fluorescence intensity": "2030 a.u."}
{"Oligonucleotide": "AAATAAAGCCTAAAGCGCGTGGTGAGTACGAAAAAAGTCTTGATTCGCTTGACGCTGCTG", "fluorescence intensity": "91.9 a.u."}
{"Oligonucleotide": "TTTTTCTTTTGATATACCGTGATGGCTCTGATAGGTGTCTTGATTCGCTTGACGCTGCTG", "fluorescence intensity": "108 a.u."}
{"Oligonucleotide": "CGATCTGGATATCACCACGCAGATCGACTCTTACATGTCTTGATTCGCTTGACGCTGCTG", "fluorescence intensity": "68.1 a.u."}
{"Oligonucleotide": "AAATTACTAAGTTGCAAGGTGGGTGACGCCGTATGAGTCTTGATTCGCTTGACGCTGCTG", "fluorescence intensity": "55.7 a.u."}
